Published values gathered from unrelated publications.
Parts stem from different laboratories: compare values within a part only. Changes are numbered by the printed parent chain.
UniProt P25098, sequence (whole entry, looked up): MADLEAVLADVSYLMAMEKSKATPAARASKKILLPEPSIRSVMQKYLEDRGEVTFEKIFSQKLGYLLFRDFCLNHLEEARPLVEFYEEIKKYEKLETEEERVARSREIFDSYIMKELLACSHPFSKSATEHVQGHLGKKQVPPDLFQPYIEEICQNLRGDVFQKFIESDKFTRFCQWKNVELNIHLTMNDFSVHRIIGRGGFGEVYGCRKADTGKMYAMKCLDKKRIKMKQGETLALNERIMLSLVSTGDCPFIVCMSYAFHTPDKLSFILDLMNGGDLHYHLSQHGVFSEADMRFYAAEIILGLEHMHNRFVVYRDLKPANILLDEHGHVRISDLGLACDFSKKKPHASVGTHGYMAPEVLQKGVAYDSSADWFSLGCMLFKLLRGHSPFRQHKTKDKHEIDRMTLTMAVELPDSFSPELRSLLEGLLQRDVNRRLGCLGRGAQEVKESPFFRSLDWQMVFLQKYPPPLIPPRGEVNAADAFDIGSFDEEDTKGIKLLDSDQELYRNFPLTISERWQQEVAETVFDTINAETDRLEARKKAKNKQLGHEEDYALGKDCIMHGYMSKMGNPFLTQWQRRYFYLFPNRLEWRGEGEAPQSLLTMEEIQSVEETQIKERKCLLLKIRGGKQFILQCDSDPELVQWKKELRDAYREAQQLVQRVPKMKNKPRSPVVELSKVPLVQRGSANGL

Set 1 — partner: H2BC9 (Homo sapiens, UniProt Q93079); method: cross-linking MS; setting: hits only
Molecule | interaction screen
HMGB2 (Homo sapiens, UniProt P26583) | cross-linked
HMGB1 (Homo sapiens, UniProt P09429) | cross-linked
SUB1 (Homo sapiens, UniProt P53999) | cross-linked
H2AX (Homo sapiens, UniProt P16104) | cross-linked
Histone H2B type 1-C/E/F/G/I (Homo sapiens, UniProt P62807) | cross-linked
H2BC5 (Homo sapiens, UniProt P58876) | cross-linked

Set 2 — method: DHFR PCA, deep sequencing; matrix: yeast; together with: (+)-ABA 710 µM; baseline: wild-type fitted maximum; reading: higher = stronger binding
Target: ABI1, truncated, D143A, DHFR fusion (Arabidopsis thaliana)
Setting: methotrexate growth selection, single substitutions
Starting sequence: PYL1, truncated, DHFR fusion (Arabidopsis thaliana); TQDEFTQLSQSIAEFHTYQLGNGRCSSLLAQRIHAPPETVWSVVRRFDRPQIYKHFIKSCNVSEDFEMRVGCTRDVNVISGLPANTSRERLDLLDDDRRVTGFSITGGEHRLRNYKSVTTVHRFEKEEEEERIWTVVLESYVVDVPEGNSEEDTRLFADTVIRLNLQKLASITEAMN
Substitution | relative binding score [%]
C72S | 101
S59N | 104
A30C | 101
F15I | 88.7
G21E | 101
G81S | 87.8
A35Y | 31.6
W134G | 108

Set 3 — method: protein-binding microarray; molecule type: double-stranded DNA, one strand shown; matrix: in vitro; tested at: not given; reading: higher = stronger binding
Target: Protein C-ets-1 (ETS1, Homo sapiens, UniProt P14921, residues 1-441, full length assumed)
Setting: k-mer, scored over probes, only values ≥0.25
Target sequence (chain): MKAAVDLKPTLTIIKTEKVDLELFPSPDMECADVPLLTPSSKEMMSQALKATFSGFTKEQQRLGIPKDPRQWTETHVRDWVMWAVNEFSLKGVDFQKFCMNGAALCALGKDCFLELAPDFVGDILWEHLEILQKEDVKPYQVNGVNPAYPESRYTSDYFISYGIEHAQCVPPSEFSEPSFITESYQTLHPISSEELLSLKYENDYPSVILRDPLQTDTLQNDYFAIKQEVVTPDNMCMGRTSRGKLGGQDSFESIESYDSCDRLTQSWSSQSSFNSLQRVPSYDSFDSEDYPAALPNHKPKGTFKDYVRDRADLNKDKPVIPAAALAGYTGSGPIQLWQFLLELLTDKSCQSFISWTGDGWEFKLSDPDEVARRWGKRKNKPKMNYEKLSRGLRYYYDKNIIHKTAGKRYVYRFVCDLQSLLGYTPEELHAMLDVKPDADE
Strand | E-score
AGGATGTC | 0.426
CGGAAGAA | 0.449
GACATCCA | 0.297
TCCGGTAA | 0.467
CCACGGGG | 0.252
GGGCGGAA | 0.462
GCCCATCC | 0.309
CCCCGCCC | 0.352

Mixed results
Structure (SMILES) | target | observed | action | tested at | baseline | measurement | value
CS(=O)(=O)CCNCc1ccc(-c2ccc3ncnc(Nc4ccc(OCc5cccc(F)c5)c(Cl)c4)c3c2)o1 | Beta-adrenergic receptor kinase 1 (GRK2, Homo sapiens, UniProt P25098) | enzyme activity | inhibitor | 0.5 µM | control | remaining activity | 94.8%

For quick reference, copied from above (set 2):
Substitution | relative binding score [%]
A30C | 101
F15I | 88.7
G21E | 101
G81S | 87.8
